Literature values, collected from citations in different studies.
Lines come from different studies, so protocols differ. Numbers after ± are the reported error. Values after ≈ are worked out from the molar mass of the structure shown.

SMILES	test	test system	setting	how to read	endpoint	result
CO[C@H]1C[C@@H]2CC[C@@H](C)[C@@](O)(O2)C(=O)C(=O)N2CCCC[C@H]2C(=O)O[C@H]([C@H](C)C[C@@H]2CC[C@@H](O)[C@H](OC)C2)CC(=O)[C@H](C)/C=C(\C)[C@@H](O)[C@@H](OC)C(=O)[C@H](C)C[C@H](C)/C=C/C=C/C=C/1C	population PK model	paediatric neurofibromatosis patients	–	–	clearance	17.3 ± 7.9 L/h/1.85 m²
CCC1=C(C)CN(C(=O)NCCc2ccc(S(=O)(=O)NC(=O)N[C@H]3CC[C@H](C)CC3)cc2)C1=O	–	plasma	concentration not given	–	Cmax	0.5 µM
Nc1ccn([C@@H]2CS[C@H](CO)O2)c(=O)n1	–	healthy, mostly White or Black	300 mg, single dose, fasted, together with: abacavir 600 mg, dolutegravir 50 mg	–	AUC(0-inf)	13100 ng·h/mL
COc1cccc(-c2c(C)n(Cc3c(F)cccc3C(F)(F)F)c(=O)n(C[C@H](NCCCC(=O)O)c3ccccc3)c2=O)c1F	–	human, Child-Pugh B hepatic impairment	150 mg single dose, mean observed	reference: patients over healthy volunteers	Cmax ratio	2.6
CC[C@H](C)CCCCC(=O)N[C@@H](CCN)C(=O)N[C@H](C(=O)N[C@@H](CCN)C(=O)N[C@H]1CCNC(=O)[C@H]([C@@H](C)O)NC(=O)[C@H](CCN)NC(=O)[C@H](CCN)NC(=O)[C@H](CC(C)C)NC(=O)[C@@H](Cc2ccccc2)NC(=O)[C@H](CCN)NC1=O)[C@@H](C)O	population PK model	patients	intravenous, per 70 kg weight	–	total clearance	1.87 L/h
O=C1c2cccc3c2[C@H](CCC3)CN1[C@@H]1CN2CCC1CC2	–	healthy volunteers, plasma	oral, dose not given, netupitant-palonosetron combination, together with: oral contraceptives	–	CL/F	14.5 L/h
Cc1cc2c(s1)Nc1ccccc1N=C2N1CCN(C)CC1	–	healthy male smokers	dose not given, together with: fluvoxamine	–	increase in AUC(0-24)	119%
NC12CC3CC(CC(C3)C1)C2	–	plasma	concentration not given	–	Cmax	1.7 µM
Nc1nc(NC2CC2)c2ncn([C@H]3C=C[C@@H](CO)C3)c2n1	–	healthy, mostly White or Black	600 mg, single dose, fasted, together with: dolutegravir 50 mg, lamivudine 300 mg	–	AUC(0-inf)	14400 ng·h/mL
Cc1cn([C@H]2C=C[C@@H](CO)O2)c(=O)[nH]c1=O	–	octanol-water	–	–	logP	-0.8
Nc1nc2c(nc(Sc3ccc(Cl)cc3)n2C2O[C@@H]3COP(=O)(O)O[C@H]3[C@H]2O)c(=O)[nH]1 (stereo in doubt)	–	methanol/water	–	–	log Kw	2.52
COc1ccnc(C[S+]([O-])c2nc3ccc(OC(F)F)cc3[nH]2)c1OC (stereo not shown)	–	nonobese children, 12–17 years	oral	–	lag time	1 h
CC(C)(C)NC(=O)[C@@H]1C[C@@H]2CCCC[C@@H]2CN1C[C@@H](O)[C@H](Cc1ccccc1)NC(=O)[C@H](CC(N)=O)NC(=O)c1ccc2ccccc2n1	–	plasma	concentration not given	–	Cmax	0.37 µM
CC1(COc2ccc3c(c2)ncn3-c2ccc3cccc(N4CCC(N)CC4)c3n2)COC1	–	mouse, U-87 MG xenograft	50 mg/kg twice daily	–	plasma concentration	100 ng/mL
Cc1nc(Nc2ncc(C(=O)Nc3c(C)cccc3Cl)s2)cc(N2CCN(CCO)CC2)n1	–	plasma	concentration not given	–	Cmax	0.23 µM
CO[C@H]1/C=C/O[C@@]2(C)Oc3c(C)c(O)c4c(O)c(c(/C=N/N5CCN(C)CC5)c(O)c4c3C2=O)NC(=O)/C(C)=C\C=C\[C@H](C)[C@H](O)[C@@H](C)[C@@H](O)[C@@H](C)[C@H](OC(C)=O)[C@@H]1C	–	–	–	–	logP	2.7
Clc1ccc(COC(Cn2ccnc2)c2ccc(Cl)cc2Cl)cc1 (stereo not shown)	–	plasma	concentration not given	–	Cmax	540 µM
CO[C@H]1C[C@@H]2CC[C@@H](C)[C@@](O)(O2)C(=O)C(=O)N2CCCC[C@H]2C(=O)O[C@H]([C@H](C)C[C@@H]2CC[C@@H](OCCO)[C@H](OC)C2)CC(=O)[C@H](C)/C=C(\C)[C@@H](O)[C@@H](OC)C(=O)[C@H](C)C[C@H](C)/C=C/C=C/C=C/1C	–	human transplant recipients	2.5 mg/day, one month co-treatment	reference: healthy volunteers, literature	rosuvastatin AUC	~2.8 fold
CCCC(CCC)C(=O)O	–	plasma	concentration not given	–	Cmax	902 µM
Cc1cc(S(C)(=O)=O)c(S(C)(=O)=O)cc1C(=O)NC(=N)N	–	patients with chronic heart failure	300 mg daily, 8 days, together with: standard heart failure medication	–	tolerability	not toxic
CN(C)CCC(c1ccc(Cl)cc1)c1ccccn1 (stereo not shown)	–	rat	together with: cyclosporin A	–	log brain permeability-surface product	-1.65 mL/g/s
CC[C@H](C)[C@H](NC(=O)[C@H](C)N)C(=O)N[C@H](C(=O)NCC(=O)N[C@@H](CC(C)C)C(=O)N[C@@H](CCSC)C(=O)N[C@H](C(=O)NCC(=O)NCC(=O)N[C@H](C(=O)N[C@H](C(=O)N[C@H](C(=O)N[C@@H](C)C(=O)O)[C@@H](C)CC)C(C)C)C(C)C)C(C)C)[C@@H](C)CC	filtration	sodium phosphate buffer	pH 7.4	–	solubility	11 ± 3 µM (≈ 13.3 µg/mL)
COc1cc(C[C@H]2C(=O)OC[C@@H]2Cc2ccc(OC)c(OC)c2)ccc1O	–	diabetic rats	oral, dose not given	reference: normal rats	Cmax increase	357%
CCCS(=O)(=O)Nc1ccc(F)c(C(=O)c2c[nH]c3ncc(-c4ccc(Cl)cc4)cc23)c1F	–	human	population PK, multiple dose, percentile range	–	half-life	30 to 120 h
Cc1nc2cccc(OCC(C)(C)C(=O)NC(C)C)c2c(N)c1C(=O)[O-].[Na+]	–	rat, male, plasma	oral gavage, 30 mg/kg, molecular weight corrected	reference: parent drug	Cmax	99.4%

SMILES	test	test system	setting	how to read	endpoint	result
C[C@](N)(Cc1ccc(O)c(O)c1)C(=O)O	–	plasma	concentration not given	–	Cmax	11 µM
COC(=O)N[C@H](C(=O)N[C@@H](Cc1ccccc1)[C@@H](O)CN(Cc1ccc(-c2ccccn2)cc1)NC(=O)[C@@H](NC(=O)OC)C(C)(C)C)C(C)(C)C	hyperbilirubinaemia risk	human, plasma	UGT1A1 inhibition	–	upper concentration limit	> 0.85 mg/L
Cc1ccc(C)c(OCCCC(C)(C)C(=O)O)c1	–	juvenile Chinook salmon, whole body wet weight	concentration not given, field-collected	–	maximum whole-body concentration	1.3 ng/g
Cc1ccccc1-c1cc(N2CCN(C)CC2)ncc1N(C)C(=O)C(C)(C)c1cc(C(F)(F)F)cc(C(F)(F)F)c1	–	healthy volunteers, plasma	oral, 450 mg, single dose, given alone	–	half-life	90.4 h
Cc1ccc(C(=O)c2cc(O)c(O)c([N+](=O)[O-])c2)cc1	rapid equilibrium dialysis	hepatocyte culture medium	–	–	unbound fraction	0.04 to 0.11
CNCc1ccc(-c2[nH]c3cc(F)cc4c3c2CCNC4=O)cc1	–	patients	600 mg twice daily, grade 3 or higher, single agent	–	patients with ALT or AST increase	11%
Nc1ccn([C@@H]2CS[C@H](CO)O2)c(=O)n1	–	octanol-water	–	–	logP	-1.3
CC[C@H](C)[C@H](NC(=O)[C@H](CCCCN)NC(=O)[C@@H](CCCCN)NC(=O)[C@H](Cc1ccccc1)NC(=O)[C@H](CC(C)C)NC(=O)[C@H](CCCCN)NC(=O)[C@@H](N)CCCCN)C(=O)N[C@@H](CC(C)C)C(=O)N[C@@H](CCCCN)C(=O)N[C@@H](Cc1ccc(O)cc1)C(=O)N[C@@H](CC(C)C)C(N)=O	–	horse erythrocytes 5 % v/v	150 µM	–	hemolysis	0 ± 0.5%
COc1ccc2c(O[C@@H]3C[C@H]4C(=O)N[C@]5(C(=O)NS(=O)(=O)C6CC6)C[C@H]5/C=C\CCCCN(C)C(=O)[C@@H]4C3)cc(-c3nc(C(C)C)cs3)nc2c1C	–	HCV genotype 1 patients	dose not given, together with: sofosbuvir	–	grade 3-4 adverse events	< 5%
C#Cc1cccc(Nc2ncnc3cc(OCCOC)c(OCCOC)cc23)c1	–	–	concentration not given, together with: acid-reducing drugs	–	absorption decrease	40 to 50%
C#Cc1cccc(Nc2ncnc3cc(OCCOC)c(OCCOC)cc23)c1	–	human	oral, 150 mg once daily, day 28, 24 h	–	terminal half-life	24.2 h
CO[C@H]1O[C@H](COS(=O)(=O)O)[C@@H](O[C@@H]2O[C@@H](C(=O)O)[C@@H](O[C@H]3O[C@H](COS(=O)(=O)O)[C@@H](O[C@@H]4O[C@H](C(=O)O)[C@@H](O[C@H]5O[C@H](COS(=O)(=O)O)[C@@H](O)[C@H](O)[C@H]5NS(=O)(=O)O)[C@H](O)[C@H]4O)[C@H](OS(=O)(=O)O)[C@H]3NS(=O)(=O)O)[C@H](O)[C@H]2OS(=O)(=O)O)[C@H](O)[C@H]1NS(=O)(=O)O	–	human	concentration not given, clinical	–	diarrhoea incidence	< 3%
C=C1CC[C@@H]2[C@](C)(CO)[C@H](O)CC[C@@]2(C)[C@@H]1C/C=C1/C(=O)OC[C@H]1O	–	rat, colon	no cyclodextrin	–	effective permeability	4.08 ×10⁻⁶ cm/s
Cc1cnc(NC(=O)C2=C(O)c3ccccc3S(=O)(=O)N2C)s1	hydroxylation, substrate	human liver microsomes	Michaelis-Menten phase	–	Km	15 µM
COc1cccc(-c2ccc(NC(=O)C3=C(C(=O)O)CCC3)c(F)c2)c1	–	human	70 mg daily, steady state	–	AUC(0-24 h)	260000 ng·h/mL
CC[C@H](C)[C@H](NC(=O)[C@H](CCCCN)NC(=O)[C@H](CCCCN)NC(=O)[C@H](Cc1ccccc1)NC(=O)[C@H](CC(C)C)NC(=O)[C@H](CCCCN)NC(=O)[C@@H](N)CCCCN)C(=O)N[C@@H](CC(C)C)C(=O)N[C@@H](CCCCN)C(=O)N[C@@H](Cc1ccc(O)cc1)C(=O)N[C@@H](CC(C)C)C(=O)N[C@@H](C)C(=O)NCC(=O)N1CCC[C@H]1C(=O)N[C@@H](C)C(=O)N[C@@H](CCCCN)C(=O)N[C@@H](Cc1ccccc1)C(=O)N[C@@H](CC(C)C)C(=O)N[C@@H](Cc1c[nH]cn1)C(=O)N[C@@H](CO)C(=O)N[C@@H](C)C(=O)N[C@@H](CCCCN)C(=O)O	–	horse erythrocytes 5 % v/v	150 µM	–	hemolysis	0 ± 0.5%
CC(C)c1c(C(=O)Nc2ccccc2)c(-c2ccccc2)c(-c2ccc(F)cc2)n1CC[C@@H]1C[C@@H](O)CC(=O)O1	–	patients with vs without statin-induced myopathy	dose not given	reference: patients without myopathy history	exposure ratio	2.4 fold
O=C(O)CNC(=O)c1ccccc1[131I]	–	normal rat, lung	10 min, together with: co-injected 99mTc-1	–	percent injected dose	0.5 ± 0.2 %ID
OC(Cn1cncn1)(Cn1cncn1)c1ccc(F)cc1F	–	plasma	concentration not given	–	Cmax	21.9 µM
CCN(CC)CCNC(=O)c1c(C)[nH]c(/C=C2\C(=O)Nc3ccc(F)cc32)c1C	–	patients	dose not given, all grades	–	patients with neutropenia	72%
O[C@@H](COc1cccc2ncccc12)CN1CCN([C@@H]2c3ccccc3[C@@H]3[C@H](c4ccccc42)C3(F)F)CC1	–	female Sprague-Dawley rats, plasma	iv bolus, 6 mg/kg, 2 h	–	plasma concentration	~1000 ng/mL
CCS(=O)(=O)N1CC(CC#N)(n2cc(-c3ncnc4[nH]ccc34)cn2)C1	–	healthy humans	concentration not given, together with: probenecid	reference: with over without probenecid	AUC(0-inf) ratio	2 fold
Cn1c(=O)c2c(ncn2C)n(C)c1=O	–	mouse, epidermis	drinking water, 0.4 mg/mL (2 mM), average over 24 h	–	epidermal concentration	16 nmol/g tissue
CO[C@H]1C[C@@H]2CC[C@@H](C)[C@@](O)(O2)C(=O)C(=O)N2CCCC[C@H]2C(=O)O[C@H]([C@H](C)C[C@@H]2CC[C@@H](O)[C@H](OC)C2)CC(=O)[C@H](C)/C=C(\C)[C@@H](O)[C@@H](OC)C(=O)[C@H](C)C[C@H](C)/C=C/C=C/C=C/1C	–	kidney transplant recipients	calcineurin inhibitor-free protocol	–	terminal half-life	12.6 h

Excerpt of the above:
SMILES	test	test system	setting	how to read	endpoint	result
Nc1nc2c(nc(Sc3ccc(Cl)cc3)n2C2O[C@@H]3COP(=O)(O)O[C@H]3[C@H]2O)c(=O)[nH]1 (stereo in doubt)	–	methanol/water	–	–	log Kw	2.52
CCCC(CCC)C(=O)O	–	plasma	concentration not given	–	Cmax	902 µM
CC[C@H](C)[C@H](NC(=O)[C@H](C)N)C(=O)N[C@H](C(=O)NCC(=O)N[C@@H](CC(C)C)C(=O)N[C@@H](CCSC)C(=O)N[C@H](C(=O)NCC(=O)NCC(=O)N[C@H](C(=O)N[C@H](C(=O)N[C@H](C(=O)N[C@@H](C)C(=O)O)[C@@H](C)CC)C(C)C)C(C)C)C(C)C)[C@@H](C)CC	filtration	sodium phosphate buffer	pH 7.4	–	solubility	11 ± 3 µM (≈ 13.3 µg/mL)
CC1(COc2ccc3c(c2)ncn3-c2ccc3cccc(N4CCC(N)CC4)c3n2)COC1	–	mouse, U-87 MG xenograft	50 mg/kg twice daily	–	plasma concentration	100 ng/mL
NC12CC3CC(CC(C3)C1)C2	–	plasma	concentration not given	–	Cmax	1.7 µM
COC(=O)N[C@H](C(=O)N[C@@H](Cc1ccccc1)[C@@H](O)CN(Cc1ccc(-c2ccccn2)cc1)NC(=O)[C@@H](NC(=O)OC)C(C)(C)C)C(C)(C)C	hyperbilirubinaemia risk	human, plasma	UGT1A1 inhibition	–	upper concentration limit	> 0.85 mg/L
